# Experimental data gathered from unrelated publications.
# Each line is one published result; not all experiments were run side by side. Numbers after ± are the reported error.
# Baiap2: BAR/IMD domain-containing adapter protein 2 (Baiap2, Rattus norvegicus, UniProt Q6GMN2)
# Sequence of UniProt Q6GMN2 (whole entry, looked up): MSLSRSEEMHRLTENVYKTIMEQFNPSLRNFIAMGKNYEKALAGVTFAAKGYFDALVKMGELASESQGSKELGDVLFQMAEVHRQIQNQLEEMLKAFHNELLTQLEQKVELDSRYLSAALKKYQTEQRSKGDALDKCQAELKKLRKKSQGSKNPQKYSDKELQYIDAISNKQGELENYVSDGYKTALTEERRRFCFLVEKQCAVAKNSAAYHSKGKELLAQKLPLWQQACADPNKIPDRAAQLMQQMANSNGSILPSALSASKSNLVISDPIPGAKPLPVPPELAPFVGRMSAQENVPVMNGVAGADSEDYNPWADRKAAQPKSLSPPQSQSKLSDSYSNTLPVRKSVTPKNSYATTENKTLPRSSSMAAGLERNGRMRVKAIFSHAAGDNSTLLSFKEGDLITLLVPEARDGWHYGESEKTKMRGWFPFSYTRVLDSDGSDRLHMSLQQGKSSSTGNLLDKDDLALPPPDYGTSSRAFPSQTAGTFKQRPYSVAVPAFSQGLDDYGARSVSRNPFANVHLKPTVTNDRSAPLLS
# MAP3K13: Mitogen-activated protein kinase kinase kinase 13 (MAP3K13, Homo sapiens, UniProt O43283)
# Sequence of UniProt P06276 (whole entry, looked up): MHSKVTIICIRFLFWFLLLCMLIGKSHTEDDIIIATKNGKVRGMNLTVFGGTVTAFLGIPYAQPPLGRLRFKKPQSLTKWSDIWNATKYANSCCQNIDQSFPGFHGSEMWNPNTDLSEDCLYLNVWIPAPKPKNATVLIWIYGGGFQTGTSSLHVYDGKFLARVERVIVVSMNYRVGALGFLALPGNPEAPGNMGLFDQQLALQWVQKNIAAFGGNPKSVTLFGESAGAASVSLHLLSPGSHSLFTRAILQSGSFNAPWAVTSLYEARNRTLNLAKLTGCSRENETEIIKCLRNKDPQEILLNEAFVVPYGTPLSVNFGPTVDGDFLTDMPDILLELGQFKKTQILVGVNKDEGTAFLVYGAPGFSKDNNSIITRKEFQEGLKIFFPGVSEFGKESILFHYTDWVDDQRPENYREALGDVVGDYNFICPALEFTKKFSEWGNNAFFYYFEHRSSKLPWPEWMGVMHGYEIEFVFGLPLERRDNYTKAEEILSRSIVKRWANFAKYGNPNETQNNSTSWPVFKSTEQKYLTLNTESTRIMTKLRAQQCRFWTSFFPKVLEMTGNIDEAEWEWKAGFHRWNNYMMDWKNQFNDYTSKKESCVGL
# Sequence of UniProt O43283 (whole entry, looked up): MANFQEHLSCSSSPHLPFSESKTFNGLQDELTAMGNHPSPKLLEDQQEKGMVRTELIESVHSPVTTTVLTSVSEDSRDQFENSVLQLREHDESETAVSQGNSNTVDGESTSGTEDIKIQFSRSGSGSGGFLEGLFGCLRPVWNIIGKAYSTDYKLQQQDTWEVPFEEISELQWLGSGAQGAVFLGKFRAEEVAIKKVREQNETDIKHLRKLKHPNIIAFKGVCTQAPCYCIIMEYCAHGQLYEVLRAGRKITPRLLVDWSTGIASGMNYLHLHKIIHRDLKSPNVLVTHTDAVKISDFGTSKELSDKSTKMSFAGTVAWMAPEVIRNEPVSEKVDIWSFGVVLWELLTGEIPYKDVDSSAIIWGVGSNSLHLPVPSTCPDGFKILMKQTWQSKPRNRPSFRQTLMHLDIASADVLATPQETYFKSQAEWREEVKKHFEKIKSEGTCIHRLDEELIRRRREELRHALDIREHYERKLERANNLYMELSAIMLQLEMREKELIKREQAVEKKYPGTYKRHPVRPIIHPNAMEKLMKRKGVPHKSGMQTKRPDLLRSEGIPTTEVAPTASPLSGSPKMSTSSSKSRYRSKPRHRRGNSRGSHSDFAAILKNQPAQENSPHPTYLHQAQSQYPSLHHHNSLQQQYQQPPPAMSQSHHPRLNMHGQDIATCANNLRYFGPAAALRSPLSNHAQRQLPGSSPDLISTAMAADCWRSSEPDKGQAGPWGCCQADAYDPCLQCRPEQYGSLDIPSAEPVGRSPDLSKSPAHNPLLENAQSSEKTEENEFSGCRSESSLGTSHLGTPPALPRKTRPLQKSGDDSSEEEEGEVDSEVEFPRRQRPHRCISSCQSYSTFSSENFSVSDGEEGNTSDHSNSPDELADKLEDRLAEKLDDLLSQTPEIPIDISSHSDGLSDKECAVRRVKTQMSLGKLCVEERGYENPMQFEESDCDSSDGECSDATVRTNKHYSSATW
# Sequence of UniProt P10275 (whole entry, looked up): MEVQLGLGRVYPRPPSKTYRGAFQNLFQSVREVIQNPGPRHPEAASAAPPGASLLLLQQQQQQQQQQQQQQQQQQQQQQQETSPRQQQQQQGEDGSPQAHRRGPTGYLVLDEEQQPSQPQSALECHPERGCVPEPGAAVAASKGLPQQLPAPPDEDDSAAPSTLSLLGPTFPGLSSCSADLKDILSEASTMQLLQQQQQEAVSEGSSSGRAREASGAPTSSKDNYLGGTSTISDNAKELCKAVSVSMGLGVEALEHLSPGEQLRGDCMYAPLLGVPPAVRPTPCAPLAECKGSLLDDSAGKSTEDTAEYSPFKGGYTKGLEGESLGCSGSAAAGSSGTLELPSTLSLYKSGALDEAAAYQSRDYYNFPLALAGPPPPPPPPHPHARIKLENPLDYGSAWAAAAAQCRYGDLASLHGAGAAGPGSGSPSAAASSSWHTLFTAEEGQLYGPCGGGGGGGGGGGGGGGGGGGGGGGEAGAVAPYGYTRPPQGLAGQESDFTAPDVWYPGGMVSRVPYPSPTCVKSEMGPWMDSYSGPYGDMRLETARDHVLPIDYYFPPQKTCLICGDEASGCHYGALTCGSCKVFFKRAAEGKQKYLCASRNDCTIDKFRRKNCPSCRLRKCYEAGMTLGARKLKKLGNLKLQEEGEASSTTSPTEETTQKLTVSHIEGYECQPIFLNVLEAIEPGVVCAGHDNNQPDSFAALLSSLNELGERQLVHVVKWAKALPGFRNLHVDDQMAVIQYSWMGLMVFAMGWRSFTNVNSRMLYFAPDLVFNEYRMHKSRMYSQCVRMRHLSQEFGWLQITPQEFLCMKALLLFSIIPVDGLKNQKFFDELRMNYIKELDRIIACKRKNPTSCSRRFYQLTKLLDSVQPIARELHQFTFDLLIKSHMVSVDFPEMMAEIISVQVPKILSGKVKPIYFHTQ
# Sequence of UniProt O14730 (whole entry, looked up): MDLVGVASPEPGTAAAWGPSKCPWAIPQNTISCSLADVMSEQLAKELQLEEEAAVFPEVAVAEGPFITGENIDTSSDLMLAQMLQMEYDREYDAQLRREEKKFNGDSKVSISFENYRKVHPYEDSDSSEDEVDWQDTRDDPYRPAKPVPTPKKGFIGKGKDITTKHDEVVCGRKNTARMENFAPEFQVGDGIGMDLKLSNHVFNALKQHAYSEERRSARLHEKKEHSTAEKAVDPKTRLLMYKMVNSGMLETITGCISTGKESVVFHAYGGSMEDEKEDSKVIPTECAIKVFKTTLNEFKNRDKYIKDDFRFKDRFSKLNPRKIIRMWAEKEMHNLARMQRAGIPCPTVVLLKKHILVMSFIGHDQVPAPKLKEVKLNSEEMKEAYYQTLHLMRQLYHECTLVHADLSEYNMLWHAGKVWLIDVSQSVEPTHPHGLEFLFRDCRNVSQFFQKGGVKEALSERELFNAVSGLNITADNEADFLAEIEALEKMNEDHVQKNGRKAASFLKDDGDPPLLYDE
# Sequence of UniProt P62813 (whole entry, looked up): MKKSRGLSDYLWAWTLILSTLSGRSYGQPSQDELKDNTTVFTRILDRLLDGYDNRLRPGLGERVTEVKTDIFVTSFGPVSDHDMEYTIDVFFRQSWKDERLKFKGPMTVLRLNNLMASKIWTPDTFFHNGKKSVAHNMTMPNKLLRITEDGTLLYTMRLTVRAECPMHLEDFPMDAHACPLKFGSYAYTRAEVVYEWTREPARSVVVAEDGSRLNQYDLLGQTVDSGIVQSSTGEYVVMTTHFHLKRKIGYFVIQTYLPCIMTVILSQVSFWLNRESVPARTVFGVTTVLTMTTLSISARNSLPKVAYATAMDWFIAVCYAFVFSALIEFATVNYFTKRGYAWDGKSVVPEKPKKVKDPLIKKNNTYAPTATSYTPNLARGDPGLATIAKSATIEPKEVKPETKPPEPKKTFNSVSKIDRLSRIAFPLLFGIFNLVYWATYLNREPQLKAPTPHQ
# Sequence of UniProt P53341 (whole entry, looked up): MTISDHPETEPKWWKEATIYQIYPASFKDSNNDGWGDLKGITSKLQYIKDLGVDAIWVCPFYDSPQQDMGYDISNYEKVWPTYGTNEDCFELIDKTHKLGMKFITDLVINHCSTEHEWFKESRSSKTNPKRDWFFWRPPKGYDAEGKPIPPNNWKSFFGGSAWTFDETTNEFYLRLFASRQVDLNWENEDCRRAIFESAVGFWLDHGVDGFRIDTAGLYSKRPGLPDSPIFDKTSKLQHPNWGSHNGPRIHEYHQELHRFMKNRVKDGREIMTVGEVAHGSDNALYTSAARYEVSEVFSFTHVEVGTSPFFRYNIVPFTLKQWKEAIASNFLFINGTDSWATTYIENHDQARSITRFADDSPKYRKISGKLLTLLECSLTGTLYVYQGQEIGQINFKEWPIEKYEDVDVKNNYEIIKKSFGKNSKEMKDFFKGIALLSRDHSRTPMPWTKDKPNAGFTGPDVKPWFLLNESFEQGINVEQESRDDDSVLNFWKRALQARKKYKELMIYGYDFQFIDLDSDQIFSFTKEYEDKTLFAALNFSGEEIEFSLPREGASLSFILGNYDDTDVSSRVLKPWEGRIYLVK
# Sequence of UniProt Q14973 (whole entry, looked up): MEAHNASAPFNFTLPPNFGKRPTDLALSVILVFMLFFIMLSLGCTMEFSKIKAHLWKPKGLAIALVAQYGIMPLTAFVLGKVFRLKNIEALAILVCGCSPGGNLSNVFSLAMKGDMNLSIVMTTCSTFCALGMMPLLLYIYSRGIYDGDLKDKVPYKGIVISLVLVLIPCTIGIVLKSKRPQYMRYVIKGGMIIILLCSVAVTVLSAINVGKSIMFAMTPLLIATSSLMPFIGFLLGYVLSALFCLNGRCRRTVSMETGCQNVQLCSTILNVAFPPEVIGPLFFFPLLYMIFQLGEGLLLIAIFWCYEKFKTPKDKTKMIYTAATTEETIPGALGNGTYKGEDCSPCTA
Compound,target,test,test system,setting,scale,quantity,value
c1cc(CN2CCCCC2)cc(OCCCNc2nc3ccccc3s2)c1,"Cholinesterase (BCHE, Homo sapiens, UniProt P06276)",,,"concentration not given, Triton",,efficacy,-95.2 ± 4.29%
O=C(Nc1cccnn1)N1CCC(=Cc2cccc(Oc3ccc(C(F)(F)F)cn3)c2)CC1,Baiap2,"competitive ABPP with azido-FP probe, measured: BAIAP2",rat brain membrane fraction,"0.01 µM, unit not given",baseline: DMSO,probe labelling,-2
CC1(C)CC(=O)c2c(nc3c(c(C#N)cn3Cc3ccccc3)c2-c2ccc([N+](=O)[O-])cc2)C1,"Gag-Pol polyprotein, reverse transcriptase (gag-pol, Human immunodeficiency virus type 1 group M subtype B, UniProt P04585)","DNA polymerase activity, inhibitor, FRET",,,baseline: mutant over wild type RT,IC50 fold change,1.9
CCN(CC)CCCC[C@H](NC(=O)[C@H](CC(C)C)NC(=O)[C@H](C)NC(=O)[C@H](Cc1ccccc1)NC(=O)c1ccc(C(C)(C)C)cc1)C(=O)N[C@@H](CO)C(=O)OC,"NPY2R (Homo sapiens, UniProt P49146)",radioligand binding,,10 µM,,specific binding,90.1%
CC(C(O)c1ccccc1)N(C)CCOC(c1ccccc1)c1ccccc1 (stereo not drawn),"Cholinesterase (BCHE, Homo sapiens, UniProt P06276)",,,"concentration not given, Triton",,efficacy,-97.1 ± 12.4%
COc1ccc2[nH]c3c(c2c1)CCN(C)CC3.Cl,"Chrna7 (Rattus norvegicus, UniProt Q05941)","ion current, inhibitor, two-electrode voltage clamp","Xenopus laevis oocytes, rat",added: 100 µM acetylcholine,,Hill coefficient,1.7 ± 0.2
CC(C)NC[C@@H](C(=O)N1CCN(c2ncnc3c2[C@H](C)C[C@H]3Cl)CC1)c1ccc(Cl)cc1,"AKT1 (Homo sapiens, UniProt P31749)","inhibitor, optical reporter","mouse AAV-transduced, brain striatum","oral, 100 mg/kg",,time to peak response,4 h
COc1cc(N)c(Cl)cc1C(=O)NC1CN2CCC1CC2 (stereo not drawn),"GPR132 (Homo sapiens, UniProt Q9UNW8)","β-arrestin recruitment, TANGO luminescence",,concentration not given,baseline: basal luminescence,log2 fold change,0.034
Cc1[nH]c(C)c(S(=O)(=O)Nc2ccc(S(F)(F)(F)(F)F)c(Cl)c2)c1C(=O)N1CCC(F)(F)C1,"DRD3 (Homo sapiens, UniProt P35462)","β-arrestin recruitment, agonist, PathHunter",,,baseline: dopamine,Imax,89 ± 1%
C[C@H]1CN(c2n[nH]c3nc(N[C@H]4CC[C@H](NS(=O)(=O)CCC(F)(F)F)CC4)ncc23)CCO1,"MAPK11 (Homo sapiens, UniProt Q15759)",Kinobeads competition,"HEK293, K562, placenta lysate","0.16 µM, unit not given",baseline: vehicle,remaining binding,0.68
O=C(c1ccc(Cl)cc1)N1CCN2C(=O)N(OC(=O)N3CCOc4ccccc43)C(=O)C2C1 (stereo not drawn),"S-formylglutathione hydrolase (Homo sapiens, UniProt P10768)","enzyme activity, inhibitor, MS-based ABPP",SW-620 conditioned medium,"10 µM, 1 h, 37 °C","baseline: compound over DMSO, lower = stronger inhibition",median ratio,1.07
COc1cc(Nc2ncc(F)c(Nc3ccc4c(n3)NC(=O)C(C)(C)O4)n2)cc(OC)c1OC,"RIOK3 (Homo sapiens, UniProt O14730)",KINOMEscan,,10 µM,,inhibition,87%
Cc1nn(C)cc1-c1nc2c(N3CCN(Cc4ccc(Cl)cc4)CC3)c(Cl)cnc2[nH]1,MAP3K13,KINOMEscan,,1 µM,baseline: DMSO control,remaining binding,88%
O=C(O)C(F)(F)C(F)(F)C(F)(F)C(F)(F)C(F)(F)C(F)(F)C(F)(F)F,"SLC10A1 (Homo sapiens, UniProt Q14973)","uptake, substrate, two-transporter equation fit",HEK293 cells stably expressing SLC10A1,"1 min, 37 °C",,Jmax,3000 ± 1480 pmol/min/mg protein
CN(C(=O)n1cnc(-c2ccc[n+]([O-])c2)c1)C1CCCCC1,Baiap2,"competitive ABPP with azido-FP probe, measured: BAIAP2",rat brain membrane fraction,"10 µM, unit not given",baseline: DMSO,probe labelling,-1.9
CCCCC/C=C\C/C=C\C/C=C\C/C=C\CCCC(=O)NCCO,"Trpv1 (Mus musculus, UniProt Q704Y3)","ion current, agonist, whole-cell patch clamp",HEK293,,,Hill coefficient,3.84 ± 0.88
O=C(Nc1cnccc1Cl)N1CCN(Cc2ccc3c(c2)OC(F)(F)O3)CC1,"GABAA receptor chloride channel, rat",binding,,"50 µM, added: [3H]TBOB",,inhibition,43%
Clc1cccc(-c2cccc(Cl)c2)c1,"Androgen receptor (AR, Homo sapiens, UniProt P10275)","reporter gene, antagonist",,"24 h, added: DHT 2 nM",,IC25,1.3 µM
O=C1c2ccncc2C(=O)c2c1[nH]c1ccccc21,"DNM1L (Homo sapiens, UniProt O00429)","inhibitor, recombinant protein",,concentration not given,,GTPase activity,inhibited
CC1(C)S[C@@H]2[C@H](/N=C/N3CCCCCC3)C(=O)N2[C@H]1C(=O)O,"Penicillin-binding protein 1A (pbpA, Streptococcus pneumoniae, UniProt Q8DR59)",inhibitor,,,,kinact/KI,18 ± 0.5 M⁻¹ s⁻¹
Oc1noc2c1CCNC2,"GABA-A receptor; alpha-1/beta-2/gamma-2 (Rattus norvegicus, UniProt P18508+P62813+P63138)","membrane potential, agonist, QP-DHM fluorescence",HEK293 expressing GABAA,10 µM,"baseline: 10 µM GABA, direction not given",agonist score,0.35
CC(C)[N+](C)(C)CC(O)COc1cccc2ccccc12 (stereo not drawn),"Cholinesterase (BCHE, Homo sapiens, UniProt P06276)",,,"concentration not given, Triton",,efficacy,-94.8 ± 9.07%
CC1(C)C(C=C(Cl)Cl)C1C(=O)OCc1cccc(Oc2ccccc2)c1 (stereo not drawn),"uncharacterized protein (Anopheles coluzzii, UniProt A0A6E8VQK1)","enzyme activity, inhibitor",Sf9 cell homogenate,"0.2326 µM, 0.1667 h, added: α-naphthyl acetate substrate",baseline: no inhibitor,remaining activity,100%
CC1=C(C)C(=O)c2ccccc2C1=O,"Reaction center protein M chain, QA site (pufM, Cereibacter sphaeroides, UniProt P0C0Y9)",charge recombination,"Rhodobacter sphaeroides, LDAO detergent solution","pH 7.8, 298 K, quinone reconstituted in QA site",,P+QA− recombination rate,9.5 s⁻¹
CCOC(=O)COc1ccc2c(=O)c3ccccc3oc2c1,"ache (Electrophorus electricus, UniProt O42275)",enzyme activity,,"0.42 µM, added: substrate 1.73 mM",higher = faster reaction,reaction velocity,0.0019 a.u.
[2H]c1c([2H])c([C@]2([2H])CCCN2C(=O)C(C)(C)Oc2ccc3cn[nH]c3c2)c([2H])c([2H])c1C([2H])([2H])[2H],MAP3K13,KINOMEscan,,1 µM,baseline: DMSO control,remaining binding,87%
Nc1ncnc2c1ncn2[C@@H]1O[C@H](COP(=O)(O)OP(=O)(O)OP(=O)(O)O)[C@@H](O)[C@H]1O,Na+/K+-ATPase,,,,,Km,270 µM
Nc1nc2c(ncn2[C@@H]2O[C@H](COP(=O)(O)OP(=O)(O)OP(=O)(O)O)[C@@H](O)[C@H]2O)c(=O)[nH]1,"GTP 3',8-cyclase (moaA, Staphylococcus aureus, UniProt P69848, R266A)",isothermal titration calorimetry,,"concentration not given, 25 °C, R266A mutant, anaerobic",,binding entropy ΔS,5.27 cal/mol/K
COc1ccc(N2C(=O)N(c3c(C)cccc3Cl)Cc3cnc(Nc4ccc(C5CCN(C)CC5)cc4OC)nc32)nc1,"BMX (Homo sapiens, UniProt P51813)",kinase activity,,0.5 µM,,inhibition,94%
O=c1cc(CSc2ccc(N=Cc3ccc(F)cc3)cc2)occ1O,"MAL12 (Saccharomyces cerevisiae S288c, UniProt P53341)",fluorescence quenching,,289.15 K,,bimolecular quenching constant,5.44e+12 M⁻¹ s⁻¹
CN(C(=O)n1cnc(-c2ccc[n+]([O-])c2)c1)C1CCCCC1,"Abhydrolase domain-containing protein 11 (Rattus norvegicus, UniProt D3ZXK4)","enzyme activity, ABPP","rat, brain","oral, 100 mg/kg/day, 1 days",baseline: vehicle,fold change,-2.8
CN1CCN(c2cc(-c3ccncc3)c(-c3ccc4ccccc4c3)nn2)CC1,"Apelin receptor (APLNR, Homo sapiens, UniProt P35414)","agonist, FLIPR",,12.5 µM,,activation,-1.3%
CC(=O)P(=O)(O)OCCc1cn([C@H](Cc2ccccc2)C(=O)O)nn1,"dxs (Pseudomonas aeruginosa, UniProt Q9KGU7, R106A)","inhibitor, DXPS-IspC coupled",,,baseline: wild-type enzyme,IC50 fold increase,17 fold
CCN(C)C(=O)Oc1ccc(CCC(=O)N2CCC(Cc3ccccc3)CC2)cc1OC,"Cholinesterase (BCHE, Equus caballus, UniProt P81908)",Ellman,equine serum BuChE,,baseline: AChE IC50 over BuChE IC50,selectivity ratio,4
Nc1nc2c(ncn2[C@H]2C[C@H](O)[C@@H](COP(=O)(O)OP(=O)(O)OP(=O)(O)O)O2)c(=O)[nH]1,"Gag-Pol polyprotein, reverse transcriptase (gag-pol, Human immunodeficiency virus type 1 group M subtype B, UniProt P04585, K653N)","nucleotide misincorporation, steady-state kinetics",,"K66N RT, added: matched template/primer, template T",,kcat,0.0253 ± 0.00133 s⁻¹
Nc1ncnc2c1ncn2[C@@H]1O[C@H](COP(=O)(O)OP(=O)(O)O)[C@@H](O)[C@H]1O,"Cell cycle histidine kinase CckA, cytoplasmic region (Caulobacter vibrioides, UniProt Q9X688)","binding, ITC",,"25 °C, added: without c-di-GMP",,-TΔS,-2.9 kcal/mol

# Some of these lines once more:
Compound,target,test,test system,setting,scale,quantity,value
CC1(C)C(C=C(Cl)Cl)C1C(=O)OCc1cccc(Oc2ccccc2)c1 (stereo not drawn),"uncharacterized protein (Anopheles coluzzii, UniProt A0A6E8VQK1)","enzyme activity, inhibitor",Sf9 cell homogenate,"0.2326 µM, 0.1667 h, added: α-naphthyl acetate substrate",baseline: no inhibitor,remaining activity,100%
CC1=C(C)C(=O)c2ccccc2C1=O,"Reaction center protein M chain, QA site (pufM, Cereibacter sphaeroides, UniProt P0C0Y9)",charge recombination,"Rhodobacter sphaeroides, LDAO detergent solution","pH 7.8, 298 K, quinone reconstituted in QA site",,P+QA− recombination rate,9.5 s⁻¹
CCOC(=O)COc1ccc2c(=O)c3ccccc3oc2c1,"ache (Electrophorus electricus, UniProt O42275)",enzyme activity,,"0.42 µM, added: substrate 1.73 mM",higher = faster reaction,reaction velocity,0.0019 a.u.
